Published values collected from several papers.
Numbered parts are unrelated; each lists some results of a single study. Substitutions count along the parent as printed.

Series 1 — method: RNA Bind-n-Seq; molecule type: RNA; medium: in vitro; concentration: 365 nM; baseline: no-protein control; direction: higher = stronger binding; endpoint: RBNS enrichment (R)
Target: RNA binding protein fox-1 homolog 2, RRM domain, GST-SBP tag (RBFOX2, Homo sapiens, UniProt O43251-10, residues 100-194)
Notes: natural RNA segment, single round, ends assumed
All sequences stand within: GGGAGUUCUACAGUCCGACGAUC … UGGAAUUCUCGGGUGCCAA
Target sequence (chain): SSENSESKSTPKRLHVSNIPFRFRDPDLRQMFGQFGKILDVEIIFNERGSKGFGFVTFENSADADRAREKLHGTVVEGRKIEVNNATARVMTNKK
AAGUCAGGGCCCACCCCAUCUGAGGCAGAGAAGACUCGAGUCCAGCCCCCAGGAAGCCUGCUCCCCUCUCUGGCCCAUGGUCCUGCUUCAUGCUUUGGGUCAGGAGGCCA: 0.399
GAUACAUAGUGUAGAACAGGAAUUUGCAGAAGCCAUUUAAGUUAUCUUUUGAGGUAAGCUCUGAUUUAGCAUUUAUUCUGAUAAAAUCUAAUACAUCAUGGGAUAUAUAU: 0.742
ACAGAUGAUGCAAAAAAAACUAAGAUACACUGGAUUGUACUGGAUGAGUCUGAAAUUAGUGUUAAAGAAGUGUGGUGCCUGAUGUUAUAACAACACCUCAUUCUUAACUG: 0.533
UGAUUCCUCAAGAAUGAAAUGAAGGCACUACAUUGAAAUAUGUUUUGUAUAAAUUUGUCAUGUUGAACAGCAUUUUAGCAUGGUAAGUUCCCUUAGCUAUAUGAAUUUUG: 0.506
AAGAGAGAGUGAGAGUGUGUGUGUAUAUGUGUGUGUGUGUGCAAUCAAACUGUGGUGUAAAUAGAUCCUCAGUGAAUUCUGGUAUUCAGACUCUGUUCCACUAGUGAAUG: 1.09
GUGGGCGGGGGCAAAGAGCCUACCAUCUCUGCCUGAGACAUCAGUUUAUACCAGACCAUUUUUACUAUGGAAUUUCAAGAGUUAAGGAUUGUCUUGGGAAACGUAGUCUA: 0.639
GAAGGUCUUCCUGUUUUCACCAUCUUUCUAAUCUUUUUCCAGCUUGAGGGAGGCGGUAUCCACCUGCAGCCCUUUUAGUGGUGGUGUCUCACUCUUUCUUCUCUCUUUGU: 0.441
GCAUUUUUGGGAGUGUAUCUAUAGCCUGUUCUACUUUGUUAAUGGGGGAUAACAGCACAUCCUAGAUCAUGUGUGAACUUUGGGGUUUUUAAUUGCCCUUGGUAUCCUGA: 0.487
ACAGGUGUUGGGGGCAGCCUGUAUUUUACCCUAGGGGCAGGUCUGCAUGGUGACCCCACAUUGCACUGGUAAACCAUUUGAGUCCCACUCUUCAUCCUGGAAGUGGGAAC: 0.882
AGCAGCGACAUCCACUCGCCAUUUGCUGACAUGAGAUUGGGAGGAAGAAUCCAGAGGUGAAGAGGGAGACGGCUCUUAGCUGCGUUCAAGGCGGGGCCCUCGGGAGCCCA: 0.58
UUUUGGAAAUUGUUGUAUAUCACUAAAAGCAUGAAUUGGAACUGCAAUGAAAGUCAAAUUUACUUUAAAAAGAAAUUAAUAUGGCUUCACCAAGAAGCAAAGUUCAACUU: 12.6
GUCCACAAUGCUUUUGUUGUCUUGUCCUGCUUCUCUAGUCCAGGGGAGACCAAAAGCUCAUACUCCUAACCCUAGGAAAGGGUUUUAGGGAGCCAAGGACCAGAGAGCCA: 0.246

Series 2 — method: Sort-seq; item: YFP reporter; medium: E. coli; notes: PhoQ-PhoP variant library; together with: 10 µM Mg2+; baseline: high Mg2+ state; direction: higher = stronger signaling; endpoint: fold induction
Substance: PhoQ, residues 284 288 289 292 302 303 SACGEM
PhoP, residues 12 14 15 18 19 TPWTL (Escherichia coli, UniProt P23836): 1.36
PhoP, residues 12 14 15 18 19 NFFVT (Escherichia coli, UniProt P23836): 6.58
PhoP, residues 12 14 15 18 19 VGHWL (Escherichia coli, UniProt P23836): 2.28
PhoP, residues 12 14 15 18 19 LHHYF (Escherichia coli, UniProt P23836): 30.7

Series 3 — method: protein-binding microarray; molecule type: double-stranded DNA, one strand shown; medium: in vitro; concentration: not given; direction: higher = stronger binding; endpoint: E-score
Target: Protein C-ets-1 (ETS1, Homo sapiens, UniProt P14921, residues 1-441, Y397A, full length assumed)
Notes: k-mer, scored over probes, only values ≥0.25
Residues (chain): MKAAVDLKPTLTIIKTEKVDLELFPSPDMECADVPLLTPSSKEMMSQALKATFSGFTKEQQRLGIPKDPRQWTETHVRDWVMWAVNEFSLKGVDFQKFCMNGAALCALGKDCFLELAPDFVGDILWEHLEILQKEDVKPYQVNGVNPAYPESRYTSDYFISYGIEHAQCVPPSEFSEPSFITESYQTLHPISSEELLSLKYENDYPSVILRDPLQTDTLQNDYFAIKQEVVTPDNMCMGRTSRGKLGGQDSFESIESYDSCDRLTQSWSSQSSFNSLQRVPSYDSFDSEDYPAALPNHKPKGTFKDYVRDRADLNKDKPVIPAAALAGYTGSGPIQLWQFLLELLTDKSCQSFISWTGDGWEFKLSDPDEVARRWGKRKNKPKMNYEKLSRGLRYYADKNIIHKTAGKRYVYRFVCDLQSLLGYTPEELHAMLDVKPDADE
CGTGTCGC: 0.315
ACCCGACA: 0.259
CGGCAACA: 0.272
TGCAGGAA: 0.26
GACGTCGA: 0.255
CGAATCGA: 0.339
CGCATCCG: 0.303
TACATGTA: 0.283
AATGACAA: 0.309
GTTTTGCA: 0.318
TCACCGGA: 0.295
CGTTGATA: 0.27
AACGACGG: 0.27

Series 4 — method: DHFR PCA, deep sequencing; medium: yeast; together with: (+)-ABA 0 µM; baseline: wild-type fitted maximum; direction: higher = stronger binding; endpoint: relative binding score
Target: ABI1, truncated, D143A, DHFR fusion (Arabidopsis thaliana)
Notes: methotrexate growth selection, single substitutions
Parent: PYL1, truncated, DHFR fusion (Arabidopsis thaliana); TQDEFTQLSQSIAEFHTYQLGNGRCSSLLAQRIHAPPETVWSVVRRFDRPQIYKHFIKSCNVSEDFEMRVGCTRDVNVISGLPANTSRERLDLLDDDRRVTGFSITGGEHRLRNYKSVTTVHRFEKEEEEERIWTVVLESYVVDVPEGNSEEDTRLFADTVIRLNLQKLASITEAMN; partner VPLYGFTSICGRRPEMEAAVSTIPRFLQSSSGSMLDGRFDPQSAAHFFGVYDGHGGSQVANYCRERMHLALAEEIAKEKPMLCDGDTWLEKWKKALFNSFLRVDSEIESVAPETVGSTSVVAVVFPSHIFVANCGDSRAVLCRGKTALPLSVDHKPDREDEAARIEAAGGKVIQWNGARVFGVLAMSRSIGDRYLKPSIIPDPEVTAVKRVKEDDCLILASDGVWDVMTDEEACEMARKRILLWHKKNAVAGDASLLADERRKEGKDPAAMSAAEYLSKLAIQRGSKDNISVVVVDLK
G102M: 1.25%
H122N: 3.87%
V40L: -2.24%
G71Q: -1.35%
V70I: 21.5%
V78W: 75.9%
F66W: 6.71%
I12R: 0.649%

Excerpt of the above (series 3):
TCACCGGA: 0.295
CGTGTCGC: 0.315
GACGTCGA: 0.255
